Experimental data from different studies.
Numbered parts are unrelated; each lists some results of a single study. Positions count from the first letter of the parent shown.
Sequence of UniProt Q9NPD8 (whole entry, looked up): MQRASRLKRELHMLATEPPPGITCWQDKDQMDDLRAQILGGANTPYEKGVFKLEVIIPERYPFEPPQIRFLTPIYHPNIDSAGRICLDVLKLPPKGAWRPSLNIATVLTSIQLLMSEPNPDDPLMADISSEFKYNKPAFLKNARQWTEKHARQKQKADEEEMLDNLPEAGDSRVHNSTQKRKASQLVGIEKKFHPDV
Sequence of UniProt P62253 (whole entry, looked up): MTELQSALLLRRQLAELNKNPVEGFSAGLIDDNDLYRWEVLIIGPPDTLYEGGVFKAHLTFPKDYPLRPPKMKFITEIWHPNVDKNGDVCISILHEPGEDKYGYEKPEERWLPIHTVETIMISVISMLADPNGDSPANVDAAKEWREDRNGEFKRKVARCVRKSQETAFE
Sequence of UniProt P68036 (whole entry, looked up): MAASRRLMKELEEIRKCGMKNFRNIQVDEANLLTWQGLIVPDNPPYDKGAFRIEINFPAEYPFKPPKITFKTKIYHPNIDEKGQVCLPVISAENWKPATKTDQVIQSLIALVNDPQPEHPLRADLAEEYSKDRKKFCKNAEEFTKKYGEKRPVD
Sequence of UniProt Q712K3 (whole entry, looked up): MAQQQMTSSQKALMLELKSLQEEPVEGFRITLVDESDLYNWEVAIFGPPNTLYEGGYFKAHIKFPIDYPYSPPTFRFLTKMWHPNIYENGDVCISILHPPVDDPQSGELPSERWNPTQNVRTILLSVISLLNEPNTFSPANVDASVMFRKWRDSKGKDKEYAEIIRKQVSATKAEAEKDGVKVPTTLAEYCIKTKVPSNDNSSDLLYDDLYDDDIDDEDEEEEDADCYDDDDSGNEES
Sequence of UniProt P61081 (whole entry, looked up): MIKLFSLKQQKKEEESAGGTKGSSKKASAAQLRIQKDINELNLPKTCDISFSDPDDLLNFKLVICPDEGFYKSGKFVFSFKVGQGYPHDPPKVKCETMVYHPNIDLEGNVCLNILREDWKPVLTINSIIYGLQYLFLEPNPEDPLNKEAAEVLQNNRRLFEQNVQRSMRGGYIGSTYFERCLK
Sequence of UniProt Q7Z7E8 (whole entry, looked up): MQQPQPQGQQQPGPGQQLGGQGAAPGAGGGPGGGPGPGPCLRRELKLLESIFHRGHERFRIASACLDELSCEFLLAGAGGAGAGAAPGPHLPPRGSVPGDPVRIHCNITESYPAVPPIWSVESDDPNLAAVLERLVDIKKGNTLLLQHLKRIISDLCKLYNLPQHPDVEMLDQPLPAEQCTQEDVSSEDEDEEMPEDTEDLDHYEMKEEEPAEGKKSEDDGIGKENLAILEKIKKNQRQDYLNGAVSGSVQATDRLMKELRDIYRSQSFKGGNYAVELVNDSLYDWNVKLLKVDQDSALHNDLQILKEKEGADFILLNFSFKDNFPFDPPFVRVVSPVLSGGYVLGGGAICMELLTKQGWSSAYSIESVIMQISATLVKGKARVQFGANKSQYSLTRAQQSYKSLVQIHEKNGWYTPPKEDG
Sequence of UniProt P51668 (whole entry, looked up): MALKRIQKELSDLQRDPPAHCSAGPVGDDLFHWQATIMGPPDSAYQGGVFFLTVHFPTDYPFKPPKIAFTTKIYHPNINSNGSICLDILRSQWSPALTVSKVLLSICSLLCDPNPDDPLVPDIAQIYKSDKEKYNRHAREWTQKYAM
Sequence of UniProt Q9H832 (whole entry, looked up): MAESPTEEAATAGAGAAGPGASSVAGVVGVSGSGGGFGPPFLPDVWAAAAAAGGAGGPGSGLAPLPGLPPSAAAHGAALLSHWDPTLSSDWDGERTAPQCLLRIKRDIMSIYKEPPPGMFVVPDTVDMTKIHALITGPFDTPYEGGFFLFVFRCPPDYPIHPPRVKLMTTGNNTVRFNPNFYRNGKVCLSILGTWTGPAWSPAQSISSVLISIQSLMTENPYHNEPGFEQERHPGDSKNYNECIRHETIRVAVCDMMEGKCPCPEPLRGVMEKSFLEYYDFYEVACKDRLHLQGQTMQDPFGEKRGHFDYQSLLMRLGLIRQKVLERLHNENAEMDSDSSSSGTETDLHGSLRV
Sequence of UniProt Q8N2K1 (whole entry, looked up): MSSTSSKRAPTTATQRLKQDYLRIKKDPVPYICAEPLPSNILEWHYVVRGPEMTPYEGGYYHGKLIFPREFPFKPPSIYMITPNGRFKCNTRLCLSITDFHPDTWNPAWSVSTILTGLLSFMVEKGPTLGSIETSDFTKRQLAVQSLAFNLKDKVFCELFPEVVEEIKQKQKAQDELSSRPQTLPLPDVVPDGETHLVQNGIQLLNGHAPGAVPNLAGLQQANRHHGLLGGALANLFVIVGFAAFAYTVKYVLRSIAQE
Sequence of UniProt Q9Y385 (whole entry, looked up): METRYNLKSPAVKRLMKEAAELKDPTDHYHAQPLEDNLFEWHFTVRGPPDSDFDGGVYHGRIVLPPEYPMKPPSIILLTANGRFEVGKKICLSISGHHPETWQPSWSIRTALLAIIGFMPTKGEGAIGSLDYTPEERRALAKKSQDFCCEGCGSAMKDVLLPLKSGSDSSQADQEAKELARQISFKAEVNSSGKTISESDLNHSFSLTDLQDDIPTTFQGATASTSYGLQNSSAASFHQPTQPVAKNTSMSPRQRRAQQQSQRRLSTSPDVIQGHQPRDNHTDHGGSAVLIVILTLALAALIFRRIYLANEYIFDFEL
Sequence of UniProt Q969T4 (whole entry, looked up): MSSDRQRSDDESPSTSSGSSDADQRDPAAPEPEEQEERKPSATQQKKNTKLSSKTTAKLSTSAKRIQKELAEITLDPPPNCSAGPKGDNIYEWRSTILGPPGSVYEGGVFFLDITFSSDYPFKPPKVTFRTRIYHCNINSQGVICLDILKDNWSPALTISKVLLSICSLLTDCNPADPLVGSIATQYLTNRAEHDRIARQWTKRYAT
Sequence of UniProt O00762 (whole entry, looked up): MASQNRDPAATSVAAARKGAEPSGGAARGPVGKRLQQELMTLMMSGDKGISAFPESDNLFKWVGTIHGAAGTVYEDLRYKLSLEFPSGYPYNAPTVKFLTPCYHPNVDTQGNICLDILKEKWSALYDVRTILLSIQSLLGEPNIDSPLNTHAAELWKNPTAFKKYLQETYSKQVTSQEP
Sequence of UniProt P63146 (whole entry, looked up): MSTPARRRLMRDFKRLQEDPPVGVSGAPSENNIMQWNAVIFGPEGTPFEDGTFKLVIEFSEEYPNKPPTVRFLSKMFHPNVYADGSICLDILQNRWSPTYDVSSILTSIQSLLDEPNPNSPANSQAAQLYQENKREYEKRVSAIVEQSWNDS

Sample 1
Sequence: B1 (MID2 RING domain)
Technique: yeast two-hybrid
Sample: yeast
Notes: mostly zero background
Relative to: not given
Reading: higher = stronger interaction
Quantity: lacZ reporter activity
B1: MID2 RING domain (UniProt Q9UJV3); chain KMETLESELTCPICLELFEDPLLLPCAHSLCFSCAHRILVSSCSSGESIEPITAFQCPTCRYVISLNHRGL
UBE2T UBC core domain (UniProt Q9NPD8): 0
UBE2J2 UBC core domain (UniProt Q8N2K1): 0
UBE2R2 UBC core domain (UniProt Q712K3): 0
UBE2E3 UBC core domain (UniProt Q969T4): 0
UBE2Q1 UBC core domain (UniProt Q7Z7E8): 0
UBE2D1 UBC core domain (UniProt P51668): 6140
UBE2L3 UBC core domain (UniProt P68036): 0
UBE2G1 UBC core domain (UniProt P62253): 0
UBE2J1 UBC core domain (UniProt Q9Y385): 0
UBE2I UBC core domain (UniProt P63279): 0
UBE2M UBC core domain (UniProt P61081): 0
UBE2Z UBC core domain (UniProt Q9H832): 0
UBE2B UBC core domain (UniProt P63146): 0
UBE2C UBC core domain (UniProt O00762): 0
BIRC6 UBC core domain (UniProt Q9NR09): 0

Sample 2
Target: RNA binding protein fox-1 homolog 2, RRM domain, GST-SBP tag (RBFOX2, Homo sapiens, UniProt O43251-10, residues 100-194)
Technique: RNA Bind-n-Seq
Form: RNA
Sample: in vitro
Concentration: 365 nM
Notes: natural RNA segment, single round, ends assumed
Relative to: no-protein control
Reading: higher = stronger binding
Quantity: RBNS enrichment (R)
Constant ends, left off below: GGGAGUUCUACAGUCCGACGAUC … UGGAAUUCUCGGGUGCCAA
Construct (chain): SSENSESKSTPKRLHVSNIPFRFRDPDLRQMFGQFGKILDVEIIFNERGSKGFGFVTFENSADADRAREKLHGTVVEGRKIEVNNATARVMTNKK
UUAAUUAAGUCCAAAAACAGCUGUCAGAACCUCGAGAGCAGAACAUGAGAAACUCAGAGCUCUGGACCGAAAGCAGAAAGUUUGCCGGGAAAAAAAAAGACAACAUUAUU: 0.689
ACACGCAUAUCAAUUAAUUUAAAAAGCGAAUAAAUGUAAAUUAUAAAAAGAGUCCUACCCCCCUCUUAAGCUGCAUAUCCCGUUCAGUUUAUUGCCCCCAUGGAGUUGAG: 0.968
GAGAGGUUCUGUAGAAUCCGAGCCUAGCACCCCAAAGUCAUGCACCCAGUAUCCUCUUGUAUGACUGUAUAUGUCUAUGUCUGGGAUCCAGGGCAAAUGUGAAUUUUCUU: 0.258
UAAACCCCUCCGGCUUGAGGAGAGUGCAAUCAUGGCUCUGCUGCCUGCACUUGCUGGGUUCCUCCCCUCUGCCUCCUUUCUUGAACUCAGAGGUAGGGACUAAGCACCAG: 0.334
GGAAAUCUUUAUAUUCUGUAUAAAAACAAAAGCAAAUUUAUAUACUAAAAUCAUUUGUCUAAAAAUUUAAGUUGUUUUCAAAUAAAAAUUAAAAUGCAUUUCUGAUAUGC: 0.835
CAGGCUUCUGGUUCUUGGUUCUAUUAUGCCACUUCUCCGGUUCUUUCUAUCCCAAGGAGAGUGUGACUGGGUCACACUCACAGUUGCUGUUACUGAAAUGAACUCUGCAG: 0.261
UCUGAUGUCACCAAUUCAGGAAAACGAGUCCUCUCCUAGGACUAUCCCCGGUUCUGGAAAUCAUGUUCUCCUCACUCAUGGUGACAAGCUAAGAAAGCUGAACAAAGGGA: 0.313
CAGUACCUGGGAAGUACGCCUGUGGGCUCUGGGGUCUAUCGCCUGCAUCAAGGAAAAGGUAUGAUGCCGCCGCCGCCUAUGGGCAUGAUGCCGCCGCCUCCGCCACCUCC: 0.267
CUAUGCUCAGAUGUCAGAUCCUCUUGUUAUUAGUGUGUCUUGUUCUGCACAGUGCAGGAGACUUUAUUCCUUUGGAAAAUUCACUGUUCCACAAACAGCAGGCUGAAUGG: 0.501
CUGCGAUGGUGUACAGGGCUGUGAUGCCGAGCGUGAGGAUGGUGGAGAGGUAGAAGUUCCAGCCCAGGCAGAUGUGCACAAACAGAGCCCCCGCGUACAGGUCCAGCUGC: 3.95
UGUUGGUUUAUAAUAGACAAGUUUUAUGGUCAUAUGCAAUUAUUCCAUUAUCUUUUUGGACACAGUGAAUAUGUUUUUUAGCUAAAAAUGUCCUUGGAAACAUAAAUGCC: 0.519
UCCCCUGGGAAGUGCUCUCAGCAGGCCUUGCGGAGCAGAGCAGAGCUGGGCAGAGCUGACUCCUGCCCCGCUGUCCCUGAUGGAACCUUCCUUCCAGAGCUGUGGAAGAG: 0.398

Sample 3
Target: CCNA2, cyclin fold, Cln2 fusion (human)
Technique: yeast growth competition, sequencing
Sample: yeast
Notes: strong parent motif
Relative to: not given
Reading: higher = stronger binding
Quantity: normalised enrichment score
Starting sequence: PKN2 docking peptide (human); VSAVRKLDFSDTM; partner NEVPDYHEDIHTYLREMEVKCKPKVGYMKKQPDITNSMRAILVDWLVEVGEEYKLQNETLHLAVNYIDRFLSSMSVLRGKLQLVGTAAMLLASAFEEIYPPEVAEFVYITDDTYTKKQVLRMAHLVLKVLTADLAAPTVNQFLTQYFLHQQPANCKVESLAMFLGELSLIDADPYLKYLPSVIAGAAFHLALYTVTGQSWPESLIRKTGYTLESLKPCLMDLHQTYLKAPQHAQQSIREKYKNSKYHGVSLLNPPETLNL
VSAVGKLDFSDTM [R5G]: 0.652
VSAVRYLDFSDTM [K6Y]: 4.2
VSAVRKLDFGDTM [S10G]: 5.48
VSADRKLDFSDTM [V4D]: 0.618
VSAVRKLGFSDTM [D8G]: 2.41
VSAVRKLPFSDTM [D8P]: 2.76
VSAVRKLDNSDTM [F9N]: 0.0349
VSNVRKLDFSDTM [A3N]: 0.756
VSAVRELDFSDTM [K6E]: 3.41
VSAVCKLDFSDTM [R5C]: 3.09
VSAVVKLDFSDTM [R5V]: 1.97
VSARRKLDFSDTM [V4R]: 6.01
VWAVRKLDFSDTM [S2W]: 4.22
VSAVRKLDESDTM [F9E]: -0.154
VSAVRKLDFSNTM [D11N]: 5.48
VSAVRKKDFSDTM [L7K]: 0.219
VSAVRKLDFSDMM [T12M]: 5.2

Sample 4
Target: ABI1, truncated, D143A, DHFR fusion (Arabidopsis thaliana)
Technique: DHFR PCA, deep sequencing
Sample: yeast
Notes: methotrexate growth selection, single substitutions
Added: (+)-ABA 710 µM
Relative to: wild-type fitted maximum
Reading: higher = stronger binding
Quantity: relative binding score
Starting sequence: PYL1, truncated, DHFR fusion (Arabidopsis thaliana); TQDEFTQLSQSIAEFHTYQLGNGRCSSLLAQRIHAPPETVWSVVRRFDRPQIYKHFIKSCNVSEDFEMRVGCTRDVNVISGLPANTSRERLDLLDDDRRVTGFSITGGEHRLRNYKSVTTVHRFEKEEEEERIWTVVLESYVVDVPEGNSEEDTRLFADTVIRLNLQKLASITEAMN; partner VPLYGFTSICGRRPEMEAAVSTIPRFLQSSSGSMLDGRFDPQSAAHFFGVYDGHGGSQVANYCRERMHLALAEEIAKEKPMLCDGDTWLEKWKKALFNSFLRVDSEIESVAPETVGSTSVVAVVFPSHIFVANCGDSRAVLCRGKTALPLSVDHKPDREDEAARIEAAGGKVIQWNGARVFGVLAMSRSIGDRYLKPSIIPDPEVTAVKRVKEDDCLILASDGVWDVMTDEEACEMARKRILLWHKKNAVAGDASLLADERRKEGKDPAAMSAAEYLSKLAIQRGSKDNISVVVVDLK
T173C: 104%
V121A: 54.1%
I79Y: 103%
I12E: 74.1%
I162C: 96.6%
V136R: 43.6%
T39L: 105%
S80Y: 81.4%
R49D: 93.2%
R99V: 32.8%
V161W: 44.2%
V70P: 107%
D65Q: 105%
A30P: 84.7%
A175Q: 96.1%
S140I: 9.08%
N165T: 25.9%
M176D: 101%
H55W: 103%
T154A: 94.6%

Some of these lines once more (sample 4):
R99V: 32.8%
V161W: 44.2%
V70P: 107%
D65Q: 105%
